Published values of several laboratories.
Protocols differ between the studies behind these lines. Several values in a cell are separate wells, animals, samples, runs or records. ± gives the spread as reported.

`CS(=O)(=O)c1ccc(-c2ccc(C3CCCCC3)cc2)cn1` gave a hepatic clearance of 8.3 mL/min/kg (liver microsome stability; human liver microsomes; 1 µM, without NADPH).
`Cc1cc2c(cc1O)C=C1C=CC(=O)C(C)(C)[C@H]1CC2` gave an MRT(0-t) of 0.57 h (male Sprague-Dawley rat, plasma; intravenous, 2 mg/kg).
The tumour-to-blood ratio of `COc1cccc(OC)c1-c1cc(C(=O)NC2(C(=O)O)C3CC4CC(C3)CC2C4)nn1-c1ccc(C(=O)N(C)CCCN(C)CCCN(C)C(=O)[C@H](CCCCNC(=O)[C@H](CC(C)C)NC(=O)C2OC2C(=O)O)NC(=O)CN2CCN(CC(=O)[O-])CCN(CC(=O)[O-])CCN(CC(=O)[O-])CC2)cc1C(C)C.[177Lu+3]` (mixture of isomers) is reported as 24 (mouse, HT-29 xenograft; 72 h post injection, biodistribution; reference: tumour over blood uptake).
`C=CC(=O)Nc1cc(Nc2nccc(-c3c[nH]c4ccccc34)n2)c(OC)cc1N(C)CCN(C)C` gave a percentage recovery of 19.9% (storage stability; human plasma samples; 30 d, -80 °C, MQC level; reference: nominal concentration).
`CC[C@H](C)[C@H](NC(=O)[C@@H](NC(=O)[C@H](CCCCN)NC(=O)[C@@H](NC(=O)[C@@H]1CCCN1[C@@H]1CN(C(=O)[C@@H](NC(=O)[C@@H](NC(=O)[C@@H](NC(=O)[C@@H](NC(=O)[C@@H](NC(=O)[C@@H](N)CCCCN)C(C)C)C(C)C)C(C)C)[C@@H](C)CC)[C@@H](C)O)CC[C@H]1NS(=O)(=O)c1ccc(C)cc1)[C@@H](C)O)C(C)C)C(=O)N[C@@H](CC(C)C)C(=O)N[C@@H](Cc1c[nH]cn1)C(N)=O` gave a helix content of 11.7% (CD spectroscopy; 20 mM phosphate buffer; 125 µM, 37 °C).
`O=C(CCC(F)(F)F)Nc1ccc([C@H]2[C@@H](F)[C@@H](F)C[C@@H](F)[C@H]2F)cc1` has a hepatic clearance of 4.9 mL/min/kg (liver microsome stability; cynomolgus liver microsomes; 1 µM).
`O=C(Nc1cnccc1-c1ccc([18F])cc1)c1ccnc(NC(=O)C2CC2)c1` gave an SUV of 1.04 ± 0.41 (FVB/NJ mouse, both sexes, brain; intravenous, 2 min post-injection, together with: P-gp inhibitor tariquidar 15 mg/kg iv).
With `Nc1ncc(-c2ccc(C3CCCCC3)cc2)cn1` the hepatic clearance was 45 mL/min/kg (hepatocyte stability; cryopreserved rat hepatocytes; 1 µM).
`CCN(CC)c1ccc2c(c1)O[B-]1(c3ccccc3)OC(=O)C(c3ccccc3)=N[N+]1=C2C` (stereo not shown): “fluorescence emission maximum” 510 nm (toluene).
`CC[C@H](C)[C@@H]1NC(=O)[C@H](Cc2ccc(O)cc2)NC(=O)CCCSC[C@@H](C(=O)N(CC(=O)N[C@@H](CC(C)C)C(=O)NCC(N)=O)Cc2ccc(F)cc2)NC(=O)[C@H](CC(N)=O)NC(=O)[C@H](CCC(N)=O)NC1=O`: “AE leading to discontinuation” 0% (human; intranasal and intravenous, 400 µg intranasal and 20 µg intravenous).
With `O=C(c1ccc([C@H]2[C@@H](F)[C@@H](F)C[C@@H](F)[C@H]2F)cc1)N1CCC(F)CC1` the hepatic clearance was 6.2 mL/min/kg (hepatocyte stability; cryopreserved human hepatocytes; 1 µM).
The tracer uptake of `CC(C(=O)O)n1nc(Cn2cc3cc(OCC[18F])c(Cl)cc3n2)c2ccccc2c1=O` (racemic) is reported as 0.25 %ID/g (rat, kidney; 2 h).
With `COc1cccc(OC)c1-c1cc(C(=O)NC2(C(=O)O)C3CC4CC(C3)CC2C4)nn1-c1ccc(C(=O)N(C)CCOCCN(C)C(=O)[C@H](CCCCNC(=O)[C@H](CC(C)C)NC(=O)C2OC2C(=O)O)NC(=O)CN2CCN(CC(=O)[O-])CCN(CC(=O)[O-])CCN(CC(=O)[O-])CC2)cc1C(C)C.[177Lu+3]` (mixture of isomers) the tissue uptake was 7.4 %ID/g (mouse, HT-29 xenograft, kidney; 24 h post injection).
The C0 of `Cc1nn(-c2nc3c(F)cc(F)cc3s2)c(O)c1C(c1ccc(C(F)(F)F)cc1)c1c(C)nn(-c2nc3c(F)cc(F)cc3s2)c1O` is reported as 11700 ng/mL and 8640 ng/mL and 23100 ng/mL (ICR mouse, plasma; intravenous, 5 mg/kg).
For `Fc1ccc(OCC2CN(Cc3cn4ccccc4n3)CCC2(F)F)cc1F` (stereo not shown), the fu was 0.107 (equilibrium dialysis; mouse plasma).
`O=C(Nc1cnccc1-c1ccc([18F])nc1)c1ccnc(NC(=O)C2CC2)c1` gave an SUV of 6.02 (PET imaging; FVB/NJ mice, both sexes, liver; intravenous, 120 min post-injection).
`CC(C)OC(=O)[C@H](CO)NCc1cc(Cl)c(OCc2cccc(-c3ccccc3)c2Br)cc1OCc1cccnc1` gave a body weight of 19.8 ± 1 g (hPD-L1 MC-38 tumour, humanised hPD-1 C57BL/6 mouse; oral, 2.5 mg/kg × 21, day 1, baseline).
Under “fluorescence emission maximum”, `COc1ccc2c(c1)O[B-]1(c3ccccc3)OC(=O)C(c3ccccc3)=N[N+]1=C2C` (stereo not shown) is recorded as 501 nm (toluene).
The hepatic clearance of `Cc1ccc(-c2ccc([C@H]3[C@@H](F)[C@@H](F)C[C@@H](F)[C@H]3F)cc2)cn1` is reported as 34 mL/min/kg (liver microsome stability; cynomolgus liver microsomes; 1 µM).
`C=Cc1ccccc1[B-]12OC(=O)C(c3ccccc3)=N[N+]1=C(CC)c1ccc(N(CC)CC)cc1O2` (stereo not shown) gave a fluorescence lifetime of 2.58 ns (toluene).
For `O=C(O)CCCOc1ccc([18F])cc1-c1cc(-c2ccccc2C(F)(F)F)n(-c2ccccc2)n1`, the absorbed dose was 16.5 µGy/MBq (OLINDA/EXM from mouse data; human adults, small intestine).
`O=C(CN1CN(c2ccccc2)C2(CCN(C(=O)c3ccc4[nH]ncc4c3)CC2)C1=O)Nc1ccccn1` gave a CLint of 66 µL/min/mg protein (human liver microsomes).
`CCNC(=S)NN=Cc1c2ccccc2cc2ccccc12.Cc1ccc(C(C)C)cc1.[Cl-].[Cl-].[Ru+2]` — result for “aquation rate constant”: 0.00118 ± 0.00024 s⁻¹ (UV-Vis spectroscopy; Tris buffer; pH 7.20, 298 K, 50 mM NaCl).
With `O=C(Nc1ccc([C@H]2[C@@H](F)[C@@H](F)C[C@@H](F)[C@H]2F)cc1)C1CC1` the hepatic clearance was 75 mL/min/kg (hepatocyte stability; cryopreserved mouse hepatocytes; 1 µM).
Under “subjects with TEAEs”, `CC(C)(O)c1ncc([S@](N)(=O)=NC(=O)Nc2c3c(cc4c2CCC4)CCC3)s1` is recorded as 17% (measured: metabolism, nutrition disorders; healthy human; oral, 100 mg, all formulations pooled).
`C=C[C@]1(C)C[C@@H](OC(=O)CSc2ccc(NC(=O)c3ccco3)cc2)[C@]2(C)[C@H](C)CC[C@]3(CCC(=O)[C@H]32)[C@@H](C)[C@@H]1O` gave a plasma concentration of 3820 ng/mL and 2090 ng/mL and 3650 ng/mL and 4760 ng/mL and 6280 ng/mL and 5680 ng/mL and 3740 ng/mL and 4960 ng/mL (Mycoplasma gallisepticum-infected chickens, plasma; intramuscular, 40 mg/kg, 0.25 h).
With `CC(C)=CCc1cc(C(=O)/C=C/c2ccc(O)cc2)c(O)cc1O` the CLint was 5.28 µL/min/mg (minipig liver microsomes; phase I metabolism).
With `COc1cccc(C2CC(c3ccccc3Cl)Nc3nc(N)nn32)c1` (stereo not shown) the permeability coefficient was > 1 ×10⁻⁶ cm/s (PAMPA; artificial membrane; 10 µM, 4 h).
With `[123I]c1ccc2nc(-c3ccc(-n4ccnn4)nc3)cn2c1` the tracer uptake was 1.22 %ID/g (male Wistar rat, liver; intravenous, 4 MBq, 30 min).
With `O=C(NCCOc1ccc(F)cc1)c1ccc(C2CCCCC2)cc1` the hepatic clearance was 40 mL/min/kg (liver microsome stability; cynomolgus liver microsomes; 1 µM).
`COc1cccc(OC)c1-c1cc(C(=O)NC2(C(=O)O)C3CC4CC(C3)CC2C4)nn1-c1ccc(C(=O)N(C)CCCN(C)C(=O)[C@H](CCCCNC(=O)[C@H](CC(C)C)NC(=O)C2OC2C(=O)O)NC(=O)CN2CCN(CC(=O)[O-])CCN(CC(=O)[O-])CCN(CC(=O)[O-])CC2)cc1C(C)C.[177Lu+3]` (mixture of isomers) gave a tumour-to-kidney ratio of 0.79 (mouse, HT-29 xenograft; 168 h post injection, biodistribution; reference: tumour over kidney uptake).
The compound remaining of `C=C1C[C@]2(C(=O)OC)C=C(C(=O)Nc3cccc(C(=O)Nc4ccc(Nc5nccc(-c6cccnc6)n5)c(C)c4)c3)C(=O)[C@H]1C2` is reported as 1.71% (Wistar rat, male, plasma; 10 µM, 20 min).
For `C/C(N)=N/C(=N\S(=O)(=O)c1ccc(C(F)(F)F)cc1)N1C[C@H](c2ccccc2)C(c2ccc(Cl)cc2)=N1`, “empirical scaling factor” read 45 (monkey; reference: in vivo over in vitro CLint).
`O=C(Nc1cc(-c2ccnc3[nH]ccc23)c(Cl)cn1)[C@H]1CCC[C@@H](NC(=O)C(F)(F)F)C1` has a hepatic clearance of 66.4 mL/min/kg (mouse liver microsomes).
For `COC(=O)[C@@]1(C)C=C(C(=O)Nc2cccc(C(=O)Nc3ccc(Nc4nccc(-c5cccnc5)n4)c(C)c3)c2)C(=O)CC1`, the compound remaining was 2.6% and 8.1% (Wistar rat male, blood plasma; 1 µM, 2 h).
For `C=CC(=O)Nc1cc(Nc2nccc(-c3cn(C)c4ccccc34)n2)c(OC)cc1N(C)CCNC`, the recovery was 98.8% (storage stability; human dried blood spot; 30 d, -80 °C, MQC level).
`CN1CCC[C@]1(C)/C=C/S(=O)(=O)NC(=O)Nc1c2c(cc3c1CCC3O)CCC2` (stereo partly shown) has an AUC(0-inf) of 298 µg·h/mL (human, plasma; oral, 12.5 mg twice daily of parent drug, day 14, metabolite of dosed drug).
For `O=C(N1CCCCC1)C12CC(c3ccccc3)(C1)C2(Cl)Cl`, “elimination rate constant” read 0.00045 s⁻¹ (pooled human liver microsomes; 2 µM, pH 7.4).
The plasma concentration of `O=C(NS(=O)(=O)c1cccs1)c1cc2ccccc2n1Cc1ccc(Br)c2ccccc12` is reported as 119 ng/mL (Sprague-Dawley rat, male; oral, dose not given, 8 h).
`C=C(NC(=O)c1csc(-c2nc3c(cc2O)-c2nc(cs2)C(=O)NC(C(C)O)C(=O)NC(=C(C)OC)c2nc(cs2)C(=O)NC2c4nc(cs4)C(=O)NC(COC(=O)c4c5c6c(cccc6n4O)COC(=O)C(OC4CC(C)(O)C(N(C)C)C(C)O4)C2OC5)c2nc-3cs2)n1)C(N)=O` (stereo not shown) gave a half-life of 5.95 h (male Sprague-Dawley rat, plasma; intravenous, 6 mg/kg, single dose, infusion).
For `F[C@@H]1[C@H](c2ccc(-c3cncnc3)cc2)[C@H](F)[C@H](F)C[C@@H]1F`, the hepatic clearance was 3.9 mL/min/kg (liver microsome stability; human liver microsomes; 1 µM, without NADPH).
For `Cc1cc(F)ccc1-c1cc(N2C[C@@H](CO)N(CC(=O)O)C[C@H]2CO)ncc1N(C)C(=O)C(C)(C)c1cc(C(F)(F)F)cc(C(F)(F)F)c1`, “amount excreted in faeces” read 4.67% and 4.7% (healthy male human; oral, 120 mg, up to 480 h cumulative; reference: dose).
The AUC of `COC1C=COC2(C)Oc3c(C)c(O)c4c(c3C2=O)C2=NC3(CCN(CC(C)C)CC3)NC2=C(NC(=O)C(C)=CC=CC(C)C(O)C(C)C(O)C(C)C(OC(=O)Nc2cnccn2)C1C)C4=O` (stereo not shown) is reported as 107 µg·h/mL (CD-1 mouse, plasma; oral, 12.5 mg/kg, efficacy dose).
Under “C>T mutation fraction”, `CC(C)OCCOCc1ccc(OCC(O)CN(N=O)C(C)C)cc1` (stereo not shown) is recorded as “increased” (mutation spectrum, duplex sequencing; NMRI mouse, liver; concentration not given).
With `CCCC[C@H](OC(C)=O)c1ccccc1C(=O)O` the MRT(0-t) was 2.4 ± 1 h (Sprague-Dawley rats, both sexes, whole blood; intravenous, 1.25 mg/kg single dose).
`COc1ccc2c(c1)CN(C(=O)CCN1CCC(Cc3ccccc3)CC1)CC[S+]2[O-]` (stereo not shown) gave a fu of 0.162 (human plasma; 750 ng/mL).
The compound remaining of `C=CC(=O)N1CCCC(n2c(=O)c3ncccc3n(Cc3ccc(Oc4ccccc4)cc3)c2=O)C1` (stereo not shown) is reported as 48.1% (metabolic stability; human, hepatocytes; 1 µM, 1 h).
The tumour-to-kidney ratio of `COc1cccc(OC)c1-c1cc(C(=O)NC2(C(=O)O)C3CC4CC(C3)CC2C4)nn1-c1ccc(C(=O)NCCNC(=O)[C@H](CCCCNC(=O)[C@H](CC(C)C)NC(=O)C2OC2C(=O)O)NC(=O)CN2CCN(CC(=O)[O-])CCN(CC(=O)[O-])CCN(CC(=O)[O-])CC2)cc1C(C)C.[177Lu+3]` (mixture of isomers) is reported as 1 (mouse, HT-29 xenograft; 24 h post injection, biodistribution; reference: tumour over kidney uptake).
For `CC(C)C[C@H](NC(=O)[C@H](CO)NC(=O)[C@H](CCC(=O)O)NC(=O)CNC(=O)[C@H](C)NC(=O)OCc1ccccc1)C(=O)N[C@@H](Cc1ccc(O)cc1)C(=O)N[C@@H](CCC(=O)O)C(N)=O`, the compound remaining was 85.3% (metabolic stability; human, plasma; 30 min).

Excerpt of the above:
The tracer uptake of `CC(C(=O)O)n1nc(Cn2cc3cc(OCC[18F])c(Cl)cc3n2)c2ccccc2c1=O` (racemic) is reported as 0.25 %ID/g (rat, kidney; 2 h).
With `CCCC[C@H](OC(C)=O)c1ccccc1C(=O)O` the MRT(0-t) was 2.4 ± 1 h (Sprague-Dawley rats, both sexes, whole blood; intravenous, 1.25 mg/kg single dose).
`O=C(Nc1cc(-c2ccnc3[nH]ccc23)c(Cl)cn1)[C@H]1CCC[C@@H](NC(=O)C(F)(F)F)C1` has a hepatic clearance of 66.4 mL/min/kg (mouse liver microsomes).
The C0 of `Cc1nn(-c2nc3c(F)cc(F)cc3s2)c(O)c1C(c1ccc(C(F)(F)F)cc1)c1c(C)nn(-c2nc3c(F)cc(F)cc3s2)c1O` is reported as 11700 ng/mL and 8640 ng/mL and 23100 ng/mL (ICR mouse, plasma; intravenous, 5 mg/kg).
